Measured values pooled from the literature.
A part holds a random share of what one study measured.

Set 1 — method: competition protein-binding microarray; form: double-stranded DNA, one strand shown; sample: in vitro; concentration: 2 µM; added: Pho4 competitor, 0.05 µM; reading: higher = stronger binding; all sequences stand within: … GTCTTGATTCGCTTGACGCTGCTG
Target: Centromere-binding protein 1, full length, His-tagged (CBF1, Saccharomyces cerevisiae, UniProt P17106, residues 1-351)
Sequence of UniProt P17106 (whole entry, looked up): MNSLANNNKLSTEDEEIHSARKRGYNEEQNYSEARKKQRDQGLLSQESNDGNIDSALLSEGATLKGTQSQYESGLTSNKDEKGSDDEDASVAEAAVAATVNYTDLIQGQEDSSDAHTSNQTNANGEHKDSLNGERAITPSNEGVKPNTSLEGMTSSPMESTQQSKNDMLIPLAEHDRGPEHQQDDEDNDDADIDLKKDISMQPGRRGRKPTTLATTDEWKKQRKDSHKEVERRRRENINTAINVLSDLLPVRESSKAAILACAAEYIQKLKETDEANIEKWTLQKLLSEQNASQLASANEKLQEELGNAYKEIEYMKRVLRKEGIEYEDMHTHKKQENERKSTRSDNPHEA
Notes: whole 60-bp probe, lowest competitor level
| Sequence | fluorescence intensity [a.u.] |
| --- | --- |
| CCATTAAAAATAATATGTGTGATATTCTTCCACACG | 128 |
| GAGTTTGATTCCAAACTCGTGGTGATACCAACGAAG | 102 |
| TGCGCAACAACTTGCGACGTGGGTGTATGTCTAGAA | 73.5 |
| ACTTCTCCATTCCGTCAGCTGATACTCTATTCGGTT | 435 |
| TTCATTGTAGATAGTACCGTGATGGCCTTCGGCAGG | 98.1 |
| CGGGGTTAAGTTTGGCTAGTGGGTGGCTTGCAGCAG | 69.2 |
| CGGGGTTAAGTTTGCCTAGTGGGTGGCTTGCAGCAG | 67.3 |
| ATCCTAGCCCTAACGCATGTGCTACTTCAAGGAATT | 112 |
| AAATTACTAAGTTGTCTCGTGGGTGACGCCGTATGA | 103 |
| CTTTCCCGATCTTGGAACGTGGGTGTAGCACATTTG | 82.8 |
| GTCTTGTCTCATTGGATTGTGGGTGTCCCCACTTCA | 99.5 |
| AAAAGTAACCATAGTCTCGTGCTAATTCGGTACTAT | 230 |
| ATGCCCGACCGTACCGACGTGGCAATATTTTTGGGA | 64.3 |
| CAATCTGCGAATGCATCCGTGCCAGAATGAAACGGC | 74.3 |
| TGCGCAACAACTTGGTCCGTGGGTGTATGTCTAGAA | 65.1 |
| CGTCCTAGTGATTTTCACGTGGAATCCATGAGGAAG | 566 |

Set 2 — method: RNA Bind-n-Seq; form: RNA; sample: in vitro; concentration: 365 nM; baseline: no-protein control; reading: higher = stronger binding
Target: RNA binding protein fox-1 homolog 2, RRM domain, GST-SBP tag (RBFOX2, Homo sapiens, UniProt O43251-10, residues 100-194)
Notes: natural RNA segment, single round, ends assumed
All sequences stand within: GGGAGUUCUACAGUCCGACGAUC … UGGAAUUCUCGGGUGCCAA
Residues (chain): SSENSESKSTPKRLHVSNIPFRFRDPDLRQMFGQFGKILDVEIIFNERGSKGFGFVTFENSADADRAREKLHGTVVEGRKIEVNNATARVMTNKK
| Sequence | RBNS enrichment (R) |
| --- | --- |
| UGUGCCUGCUCUCUGCUCCUGUUCUUUCCCUCCCAUACCUGGCUGCUGUGAGGACACUCACCUUGUUCUGGCUUCAGCUGCUAGCCUACCCACAUCUCAGCGCUUUCCCC | 1.39 |
| GGCGACUUGAAUAAAGUGGGAGGUCAAACAUGGGCCUUCGGCAUUGGGUUUCUAGGGAAUAUGGCUCAGUAGGGCCUGCCCCUUCAAGGGCAGCAAGAACGAAGCAGGAU | 0.326 |
| CUCAGGAAUUCCCUGGUUUCCACUGGGCCACCCACUUGCUGGACAGUCUGAGCCAAGUCCCUCCUGCUGGAGAAAAGCCUGGAACUGCCAAAACAAAAAAACAAAUACAA | 0.41 |
| UUCUACUCUGUUCCUGGCCCUGCCGGCAGCCACUGACAAGAGGCCAGUGUGUCACCAGCCCUCAGCAGAAACCGAAAGAGAAAGAACGGAAACACGGAGUUUGGGCUCUG | 0.206 |
| UUCGUUUGAUUUUUUUUCUGUAAAUGUCUGCACUAAGGGUUUCUUUCAGUUUGCCUUUUAUGUAAAUUUUUUACGUAGCUAUUUUUAUACACUGUAAGCUUUGUUCUGGG | 0.489 |
| CUGUAGGGUUCACUCUUCUGCAGUCACUUUAGCUUUCUGCAGAAGUCUAGAUUUUAAAUUAACUGUAGAAGGAAGUCAGACACCCACAGGUUUCUUCUAAUCAAGCUUCC | 0.602 |
| GGGAAAUAUCCUAUGUUUUCUUGCUCAAACACCUUUCUCUCUGAAAGCAGAAAAAGGCACUGAUAUAAAGGGAAGAGAAGGAGGCUCACCGGAGGGAAGAGAACAUAGUG | 0.373 |
| GGCUUGUUUGUUCCCUACCAAUAUUCUGUUGCUGUUUGAAGUAGUGCCAGGGUCCCCUGGGAAGAUGCCCCCAAGACACCUGCCCCAAGUGGGUGGAUAUCUGCCUUCCU | 0.407 |
| CUCAUGGUCAUUCUGUCUUACCUUAGUGGCUUGACAGUACUUACUAUAGCUCCUGAGGGAAGCCAAUCAACUUCUGUUUUCCUACCUGACCUGCAGGGCAUGAUGGAUCA | 0.326 |
| AGCAGCUUUUGUGUCAUUCUCCCCACUUUAUUAGUUAAUUUAAAUUGGAAAAAACCCUCAAACUAAUAUUCUUGUCUGUUCCAGUCUUAUAAAUAAAACUUAUAAUGCAU | 1.44 |
| UUCAGGUGGUAGCCCUGGUUGUGCUGGGCGGCUAGUGAUGAUGCUGUGCUCUGCCAUCCAUCCAGACAGAAACCAGCCCCAACGCCUCCAGUUCUGUUUUUGCAUCGUGA | 1.23 |
| CCCGUCCACGUCCUCCAAGCUCACGACCUUGGAGCCCCGUGGAGCUGGACUGAGGAGGAGGCUGCACAGCGGGAGAGCAGCUGGUCCAGACCAGCCCUGCAGCCCCCACU | 0.261 |

Set 3 — method: aptamer microarray, sandwich; form: DNA with 2'F-ANA; sample: in vitro; concentration: 200 nM; added: Cy3 exosite-II aptamer, 400 nM; reading: higher = stronger binding; sequence: GGTTGGTGTGGTTGG
Target: Prothrombin, mature alpha-thrombin (F2, Homo sapiens, UniProt P00734)
Notes: whole 15-mer aptamer, many near background
| Modification | mean fluorescence intensity [a.u.] |
| --- | --- |
| 2'F-ANA at 1 2 4 5 7 10 11 12 13 14 | 46.5 |
| 2'F-ANA at 3 5 7 8 9 10 11 14 15 | 69.8 |
| 2'F-ANA at 2 3 5 6 7 10 13 14 | 44.4 |
| 2'F-ANA at 1 3 6 7 9 10 11 12 13 15 | 88.7 |
| 2'F-ANA at 3 6 7 9 11 12 13 15 | 962 |
| 2'F-ANA at 2 3 5 8 9 10 11 12 13 15 | 136 |
| 2'F-ANA at 1 3 4 6 7 9 11 12 | 267 |
| 2'F-ANA at 2 4 5 6 7 10 11 13 14 | 53.1 |
| 2'F-ANA at 3 4 5 6 8 9 10 11 12 13 14 | 50.9 |
| 2'F-ANA at 1 2 4 5 8 11 14 | 85.2 |
| 2'F-ANA at 1 2 3 8 9 10 11 12 13 14 15 | 57.5 |
| 2'F-ANA at 2 3 10 11 13 14 | 283 |
| 2'F-ANA at 5 8 10 11 12 | 50.9 |
| 2'F-ANA at 1 4 7 8 13 | 111 |
| 2'F-ANA at 1 2 4 5 7 10 12 | 50.7 |
| 2'F-ANA at 4 6 7 8 9 11 15 | 202 |

Set 4 — method: RNA Bind-n-Seq; form: RNA; sample: in vitro; concentration: not given; baseline: input RNA pool; reading: higher = stronger binding
Target: RING finger protein unkempt homolog, zinc fingers 1-6, GST-SBP tag (UNK, Homo sapiens, UniProt Q9C0B0, residues 30-357)
Notes: RNA with constant flanks, human and mouse sites, ends assumed
All sequences stand within: GGGAGUUCUACAGUCCGACGAUC … CAACAGAGGAUUGAGCAUCA
Residues (chain): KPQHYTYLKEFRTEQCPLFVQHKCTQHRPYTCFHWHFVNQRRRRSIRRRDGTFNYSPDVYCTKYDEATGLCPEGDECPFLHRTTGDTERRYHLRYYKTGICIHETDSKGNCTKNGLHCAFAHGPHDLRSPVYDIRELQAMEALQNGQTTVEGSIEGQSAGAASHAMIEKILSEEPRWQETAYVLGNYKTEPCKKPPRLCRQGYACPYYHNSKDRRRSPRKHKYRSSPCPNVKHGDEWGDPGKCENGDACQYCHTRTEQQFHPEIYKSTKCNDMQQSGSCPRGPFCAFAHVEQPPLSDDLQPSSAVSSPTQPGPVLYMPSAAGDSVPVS
| Sequence | bound/input enrichment [ratio] |
| --- | --- |
| GGUUUUCAUGGAGACUGUCUUACGCUGACAAAGAUUAUUGAAGCAAGACUAAAGAUGUAUAAGCAUUCCAAUAAUAAGGCCAUGACUACGGGGGCAAUUGCUGCAAUGCUGUCUACAAUC | 0.245 |
| UAUAGUAUAGAUUUUAUUUUUAAGAAGUUUAUAUAAUUCUUUUGUGAACCAAUAUGUAAAACUAGAAUAUUUAUUAAACUAAUAAUAUGUAUUAGUAUCAAUAAAAUAUGUAUUUAUUUU | 8.01 |
| UGCCUCUGUCUUGUAUUUGUUUUGUUCUGUUUUCUCAUUGGGGGUAAAUGGUGCCUGGCACAUGGCAGGCACUCAAUAAAUAUUUGUUUGUGGAAUGUCUCCUUUCUCUUUCCACUCUGA | 0.323 |
| AGGACACGGCCACGGGAGAGGCGAGGGUAACUGGGAGACUGUGCGGCUCGGCGGGCUGGGCCGUCAGGCUGAGAGCUGCUGCUGGGAGGGCGUGACUGGCGAAGGCUGGAGGUUCGGCUU | 0.126 |
| AAUCAGUCAAAAACGACACCUUUUAAAGAUUGCAAAGUAUUGAAACAAAGACCAAGAUUUGUAGCUCUGAAGAAACAACCAUCCUAUAUUGGAGGACAUGAGGGCUUAGAACUGAGAGAC | 0.279 |
| AUGUCUUUUCAGAAGCCUAAAGGAACCAUUGAAUAUACUGUUGAAUCAAGGGAUUCUUUGAAUAGCAUAGCCCUGAAAUUUGAUACCACACCCAAUGAACUUGUUCAGUUAAAUAAGUUA | 0.248 |
| CCCCCCCCCCCCCCGGCGUCUGGCGACCCAGCGUGGAGCGAGGCCCCGCCGGGGGCGGCCAUGCGGCGGUGACAGGAGCACGGCCGAGACGCACGGGCCCCCCUCGCCCUCUCACCUCCA | 1.32 |
| GUAGAGAAAGACCGGCCGGCGGCUUUAGACUCCCUUGAGGAGCCUCUUCCCGGGAUGCUCUUCUUUCUGUCAUCUGGACAGGACCAGCAAGCGCACCCCCAGCUGAGGGAACACCCAGCA | 0.0855 |
| GCUGCCAUGGCUGCAAGGCCCCAUUCCAUUGAUGGCAGGGUAGUUGAGCCAAAACGUGCUGUAGCAAGAGAGGAGUCUGGAAAACCAGGAGCCCAUGUGACUGUGAAGAAGCUGUUUGUU | 0.212 |
| GACAUCCCACUGUUUCCAGUGCAGUCCAAGUACAUGGAUGUGGUCAAGGAGCGGAUCCGUCUAGCCCGACAGAUUGAAAAAGCUGAAUACCGGAACUUCCAGGCUUGUCUGCACAACUCA | 0.0874 |
| UUUAUCAGAACACUUCUGGCUGUUACAAGACCAUUUAUUAGCUCGAAAUUCAGCCAAAAAAUUAGAUACGUGUUUAAUUUGGCAGAACUAGCAGAACUUGUCCCCAUGGAAUACGUUGGC | 0.762 |

Set 5 — method: protein binding microarray; form: double-stranded DNA, one strand shown; sample: in vitro; concentration: not given; baseline: not given; reading: higher = stronger binding
Target: Histone acetyltransferase KAT6A, winged helix 2, GST fusion (KAT6A, Homo sapiens, UniProt Q92794, residues 85-181)
Notes: 8-mer, flanks averaged, mean of 2 arrays, mostly near background
Residues (chain): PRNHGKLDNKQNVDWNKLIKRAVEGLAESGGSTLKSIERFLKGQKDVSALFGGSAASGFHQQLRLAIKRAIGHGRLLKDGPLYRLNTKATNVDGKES
| Sequence | E-score |
| --- | --- |
| AATCTGGA | 0.0221 |
| CCCGAAGC | 0.193 |
| GACGTAAC | -0.15 |
| AAGGTCGA | -0.0421 |
| GATTGAGA | -0.0613 |
| ATTACCTG | -0.223 |
| AACGTACT | -0.153 |
| GATCGTCC | 0.0275 |
| TGCTGGAA | 0.127 |
| CGCACAGC | 0.252 |
| ACCTTAAA | -0.0506 |
| CAATGGAC | 0.0215 |
| CCCAAGAA | 0.119 |
| CATTTCCC | 0.105 |
| AATGTGCC | -0.0322 |
| GTGGTGAA | -0.0131 |
| GGCTGCCC | 0.219 |
| ACCTTACG | -0.00069 |
| CGTTAATA | -0.0726 |
| CGAAGCCC | 0.0175 |
| AGTCAAGA | -0.0618 |
| GTATACAA | 0.000435 |
| ATCGCCTC | 0.119 |

Excerpt of the above (set 4):
| Sequence | bound/input enrichment [ratio] |
| --- | --- |
| GCUGCCAUGGCUGCAAGGCCCCAUUCCAUUGAUGGCAGGGUAGUUGAGCCAAAACGUGCUGUAGCAAGAGAGGAGUCUGGAAAACCAGGAGCCCAUGUGACUGUGAAGAAGCUGUUUGUU | 0.212 |
| UGCCUCUGUCUUGUAUUUGUUUUGUUCUGUUUUCUCAUUGGGGGUAAAUGGUGCCUGGCACAUGGCAGGCACUCAAUAAAUAUUUGUUUGUGGAAUGUCUCCUUUCUCUUUCCACUCUGA | 0.323 |
| CCCCCCCCCCCCCCGGCGUCUGGCGACCCAGCGUGGAGCGAGGCCCCGCCGGGGGCGGCCAUGCGGCGGUGACAGGAGCACGGCCGAGACGCACGGGCCCCCCUCGCCCUCUCACCUCCA | 1.32 |
| GUAGAGAAAGACCGGCCGGCGGCUUUAGACUCCCUUGAGGAGCCUCUUCCCGGGAUGCUCUUCUUUCUGUCAUCUGGACAGGACCAGCAAGCGCACCCCCAGCUGAGGGAACACCCAGCA | 0.0855 |
| GGUUUUCAUGGAGACUGUCUUACGCUGACAAAGAUUAUUGAAGCAAGACUAAAGAUGUAUAAGCAUUCCAAUAAUAAGGCCAUGACUACGGGGGCAAUUGCUGCAAUGCUGUCUACAAUC | 0.245 |
